{"data": "Measured values from different studies", "note": "Each line is one published result; not all experiments were run side by side. Numbers after ± are the reported error."}
{"Structure (SMILES)": "O=C1CCc2ccc(OCCCCN3CCN(c4cccc(Cl)c4Cl)CC3)cc2N1", "system": "healthy Japanese men, CYP2D6 EM, plasma", "setting": "oral, 3 mg aripiprazole single, added: fluvoxamine 100 mg/day", "measurement": "AUC", "result": "1530 ± 289 ng·h/mL"}
{"Structure (SMILES)": "COc1cc2c(cc1OC)CN(CCc1ccc(NC(=O)c3cc(OC)c(OC)cc3NC(=O)c3cnc4ccccc4c3)cc1)CC2", "system": "human, plasma", "setting": "intravenous infusion, 6 mg/kg, up to 24 h after infusion end", "measurement": "AUC", "result": "19700 ng·h/mL"}
{"Structure (SMILES)": "CC(C)(C)c1cc(C(C)(C)C)c(NC(=O)c2c[nH]c3ccccc3c2=O)cc1O", "system": "healthy subjects, plasma", "setting": "oral, 50 mg ivacaftor once daily, added: tezacaftor 25 mg, itraconazole 200 mg", "how to read": "baseline: with over without itraconazole", "measurement": "AUC ratio", "result": 15.6}
{"Structure (SMILES)": "CNCc1ccc(-c2[nH]c3cc(F)cc4c3c2CCNC4=O)cc1", "test": "noncompartmental analysis", "system": "patients, plasma", "setting": "oral, 500 mg twice daily, day 1, added: bevacizumab infusion", "measurement": "AUC at steady state", "result": "16700 ± 4600 ng·h/mL"}
{"Structure (SMILES)": "O=C(CCCCCCC(=O)Nc1ccccc1)NO", "system": "cancer patients, serum", "setting": "oral, 400 mg, cycle 1 day 2, AUC 0-7 h, added: flavopiridol 30 to 30 mg/m^2", "measurement": "AUC", "result": "11.1 µM·h"}
{"Structure (SMILES)": "Cn1cnc2c(F)c(Nc3ccc(Br)cc3Cl)c(C(=O)NOCCO)cc21", "system": "ESRD on hemodialysis, plasma", "setting": "oral, 50 mg single dose, dosed after dialysis, LS mean", "measurement": "AUC", "result": "1880 ng·h/mL"}
{"Structure (SMILES)": "Nc1nc(NC2CC2)c2ncn([C@H]3C=C[C@@H](CO)C3)c2n1", "system": "HIV-infected children and adolescents, plasma", "setting": "oral, 8 mg/kg, 0 to 8 h", "measurement": "AUC", "result": "8400 ng·h/mL"}
{"Structure (SMILES)": "O=C(c1cccnc1-c1ccncc1)N1CCC(O)(Cc2ccccc2)CC1", "system": "healthy subjects, plasma", "setting": "oral, 300 mg twice daily, day 1", "measurement": "AUC over dosing interval", "result": "1460 ng·h/mL"}
{"Structure (SMILES)": "O=C(O)C[C@H](O)C[C@H](O)/C=C/c1c(C2CC2)nc2ccccc2c1-c1ccc(F)cc1", "system": "healthy Chinese female volunteers, plasma", "setting": "oral, 2 mg once daily, multiple dose", "measurement": "AUC at steady state", "result": "280 ng·h/mL"}
{"Structure (SMILES)": "CN1CCN(c2ccc3nc(-c4c(N)c5c(F)cccc5[nH]c4=O)[nH]c3c2)CC1", "system": "patients, plasma", "setting": "oral, 300 mg daily 5 days on 2 off, day 19, AUC 0-24 h median, added: gemcitabine and capecitabine", "measurement": "AUC", "result": "3850 ng·h/mL"}
{"Structure (SMILES)": "CC[C@@H](C)[C@@H]1NC(=O)[C@H]([C@@H](C)CC)NC(=O)[C@@H](Cc2c[nH]c3ccccc23)NC(=O)CCSCC[C@@H](C(=O)N(C)[C@H](CO)CCCN)NC(=O)[C@H](CC(N)=O)NC1=O", "system": "perfused human placental cotyledon", "setting": "1.2 µM, 1 to 120 min, maternal to fetal, added: antipyrine 531 µM", "measurement": "AUC of placental transfer", "result": "1250 ± 437 %·min"}
{"Structure (SMILES)": "O=C1CC[C@@]2(O)[C@H]3Cc4ccc(O)c5c4[C@@]2(CCN3CC2CC2)[C@H]1O5", "system": "hairless guinea pig, plasma", "setting": "topical, 0.5 mL of 16% gel", "measurement": "AUC", "result": "259 ± 179 ng·h/mL"}
{"note": "Excerpt of the above:"}
{"Structure (SMILES)": "COc1cc2c(cc1OC)CN(CCc1ccc(NC(=O)c3cc(OC)c(OC)cc3NC(=O)c3cnc4ccccc4c3)cc1)CC2", "system": "human, plasma", "setting": "intravenous infusion, 6 mg/kg, up to 24 h after infusion end", "measurement": "AUC", "result": "19700 ng·h/mL"}
